Measurements from different studies.
Every numbered part comes from another study and shows a few of its results, in no order. Positions count from the first letter of the parent shown.

Series 1
Target: vanadate, free oxyanion
Technique: microfluidic competitive inhibition
Matrix: in vitro, cell-free expressed
Concentration: not given
Notes: derived from inhibition constants, unchanged parent 676 nM
Direction: lower = stronger binding
Quantity: oxyanion analog dissociation constant
Parent: PafA, mature enzyme, eGFP fusion (Elizabethkingia meningoseptica, UniProt Q9KJX5); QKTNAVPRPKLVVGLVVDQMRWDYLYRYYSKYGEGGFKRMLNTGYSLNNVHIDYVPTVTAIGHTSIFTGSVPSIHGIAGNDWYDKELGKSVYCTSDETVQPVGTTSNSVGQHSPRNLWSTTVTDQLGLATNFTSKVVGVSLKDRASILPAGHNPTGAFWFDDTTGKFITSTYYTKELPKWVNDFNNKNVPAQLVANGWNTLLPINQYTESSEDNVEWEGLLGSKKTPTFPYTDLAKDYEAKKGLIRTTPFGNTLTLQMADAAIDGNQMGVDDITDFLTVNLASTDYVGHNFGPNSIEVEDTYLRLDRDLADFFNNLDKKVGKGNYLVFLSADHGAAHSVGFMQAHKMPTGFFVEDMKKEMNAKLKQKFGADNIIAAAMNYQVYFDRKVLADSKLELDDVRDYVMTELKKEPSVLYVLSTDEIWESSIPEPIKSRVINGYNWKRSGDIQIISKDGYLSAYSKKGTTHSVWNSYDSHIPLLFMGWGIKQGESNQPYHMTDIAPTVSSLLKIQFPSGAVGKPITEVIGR
Variant = Q19V; value = 20.5 µM
Variant = W423G; value = 574 nM
Variant = N252G; value = 914 nM
Variant = V388A; value = 772 nM

Series 2
Target: RNA binding protein fox-1 homolog 2, RRM domain, GST-SBP tag (RBFOX2, Homo sapiens, UniProt O43251-10, residues 100-194)
Technique: RNA Bind-n-Seq
Form: RNA
Matrix: in vitro
Concentration: 365 nM
Notes: natural RNA segment, single round, ends assumed
Baseline: no-protein control
Direction: higher = stronger binding
Quantity: RBNS enrichment (R)
Constant ends, left off below: GGGAGUUCUACAGUCCGACGAUC … UGGAAUUCUCGGGUGCCAA
Construct (chain): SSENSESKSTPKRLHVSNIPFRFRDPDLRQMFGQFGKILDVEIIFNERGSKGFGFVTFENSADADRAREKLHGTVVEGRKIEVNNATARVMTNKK
Strand = GUGCUGUUUUCCAUUCGCUUCCACGGCUUCUGCCUCCUGCCAUAAAACCAGCGAGUGUCGUGGUGCAGGCAGGCCCUGUGGCCUGCUGGGCUGAGGGAAGUCAGAGCCCC; value = 0.268
Strand = AAGAAUGCUAUAGAUGACAACAGUAUUAAAUGUUACUCCUGAUUCUGCAGAACAGCUUUUGAAGAUACUGGGGGGUAUCUUCAAGCCUCAGAGCAGCUUGUUUCAGAUAG; value = 1.2
Strand = UAUUUAAAAUAUUUCUGAAGUUCAGUAAUUUGGAUGCCUUCAUUAGUAGAUGCUGUCCUAUAUACCUAUUAAAAAUGCCAAACACUGAUAACAUUGAACAUGUUCAUAUU; value = 0.423
Strand = CCCAAAUCUUAAUUUUUCUCUUUUUUUUCUUUGGCUUUGGGAACGGCAUAAUUUUACACCAUUUUACCAAACAUACUGAGAACGAAAACUUCAAGGAUGAUGUUAGAAAA; value = 0.79
Strand = AUCAAGGUUCUUCAAGGGGUCUUUCUCCCUCUGAGAUAUUCAAGGCAAAUGUCUGGAUGUCGCAUUUCCUCACCCCCCACCUCAUGAAUCCUACUUCUCCCCAACAUAGA; value = 0.439
Strand = GACCUGCGCUCCAGGGUGGUCUCGGUCCCAGGGUGGUCCCAGCUGGUGGGAGCCUCUGGCUGCAUCUGUGCAGCCACAUCCUUGUACAGAGGCAUAGGUUACCACCCCCA; value = 0.159
Strand = UGAAGGCACAGGGUUGUGUGGGUGACUAACUUCACACGGCAGAAGAGAUGUUGCUCUAAUGCUCACAAACAGGGCUUGCUCUUUUUUUUAUUUUUAGAGGAAAUACAUUU; value = 0.45
Strand = CAUGAAAUGAUAGAUUUGACCUCCUCCCUGUUAUUUUCAAGUAGCUGGGAUUUUAAACUAGAUGACCUCAUUAACCGAUGCUUUACCAAACAGCAAACCAAGAGAUUGCU; value = 0.602

Series 3
Target: CCNB2, cyclin fold, Cln2 fusion (human)
Technique: yeast growth competition, sequencing
Matrix: yeast
Notes: weak parent motif
Baseline: not given
Direction: higher = stronger binding
Quantity: normalised enrichment score
Parent: viral docking peptide; PTARRRLLHDLDT
Variant = R5A; value = 0.272
Variant = D10A; value = 0.416
Variant = D12A; value = -0.00489
Variant = P1A; value = 0.614
Variant = T13A; value = 0.429
Variant = H9A; value = 0.732
Variant = L8F; value = 0.508
Variant = R5K H9F; value = 0.525
Variant = H9F; value = 0.49

Series 4
Target: UDP-N-acetylglucosamine--peptide N-acetylglucosaminyltransferase 110 kDa subunit (OGT, Homo sapiens, UniProt O15294)
Sequence of UniProt O15294 (whole entry, looked up): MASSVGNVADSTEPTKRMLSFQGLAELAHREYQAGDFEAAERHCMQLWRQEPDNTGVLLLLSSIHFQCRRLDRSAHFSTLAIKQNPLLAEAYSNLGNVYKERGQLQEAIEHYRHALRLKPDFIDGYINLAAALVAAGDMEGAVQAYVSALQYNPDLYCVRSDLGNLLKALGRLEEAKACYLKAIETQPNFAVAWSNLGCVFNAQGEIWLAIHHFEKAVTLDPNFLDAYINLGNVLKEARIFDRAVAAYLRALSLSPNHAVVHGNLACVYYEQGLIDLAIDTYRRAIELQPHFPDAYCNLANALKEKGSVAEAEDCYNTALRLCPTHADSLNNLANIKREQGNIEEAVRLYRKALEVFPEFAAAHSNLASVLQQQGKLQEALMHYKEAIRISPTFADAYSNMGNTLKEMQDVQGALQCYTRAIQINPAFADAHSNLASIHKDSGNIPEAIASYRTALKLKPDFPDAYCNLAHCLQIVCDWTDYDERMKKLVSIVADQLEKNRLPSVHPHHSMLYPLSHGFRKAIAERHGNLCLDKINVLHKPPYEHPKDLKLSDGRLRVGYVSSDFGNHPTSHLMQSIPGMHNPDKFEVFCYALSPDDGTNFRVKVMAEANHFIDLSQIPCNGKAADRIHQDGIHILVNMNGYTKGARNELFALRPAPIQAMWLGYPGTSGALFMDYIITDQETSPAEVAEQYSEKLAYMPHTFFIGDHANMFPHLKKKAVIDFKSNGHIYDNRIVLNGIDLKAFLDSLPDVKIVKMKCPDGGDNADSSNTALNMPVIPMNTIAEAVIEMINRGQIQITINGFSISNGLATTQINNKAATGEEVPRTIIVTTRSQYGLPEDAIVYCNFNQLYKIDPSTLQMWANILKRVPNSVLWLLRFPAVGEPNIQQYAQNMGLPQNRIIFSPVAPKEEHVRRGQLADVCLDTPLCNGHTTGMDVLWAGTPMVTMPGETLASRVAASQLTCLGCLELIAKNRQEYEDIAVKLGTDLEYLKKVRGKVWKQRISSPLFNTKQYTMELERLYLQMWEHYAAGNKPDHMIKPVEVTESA
Read-out: binding
Technique: phage display NGS
Form: peptide
Concentration: concentration not given
Baseline: input library
Quantity: enrichment fold change
Sequence = QPYSNYHHHAHIRYD; value = 4.56
Sequence = TLFPPVYQIFAIGME; value = 3.77
Sequence = HQQLVHGAWHHPIT; value = 5.68
Sequence = HRVQFPWPHDAGHRH; value = 6.86
Sequence = QRYGHTHMDHFSTSI; value = 3.25
Sequence = HNFFEYHTANRHQHF; value = 9.7

Repeated from above (series 4):
Sequence = HQQLVHGAWHHPIT; value = 5.68
Sequence = QPYSNYHHHAHIRYD; value = 4.56
Sequence = TLFPPVYQIFAIGME; value = 3.77
Sequence = HRVQFPWPHDAGHRH; value = 6.86
